Published values collected from several papers.
± marks the error that the study gave.

SMILES	cell line	assay	setting	IC50 [µM]
O=c1[nH]c(=O)n([C@H]2C[C@H](OP(=O)(O)OC[C@H]3O[C@H](O)[C@H](O)[C@@H](O)[C@@H]3O)[C@@H](CO)O2)cc1I	CEM-CCRF	cell growth, trypan blue exclusion	6 d	76
C=C(C[C@@H]1CCOc2ccc(C)cc21)c1ccccc1	RAW264.7	cytotoxicity, CCK-8	24 h	155
O=c1[nH]cnc2c1ncn2[C@H]1CC[C@@H](CO)O1	CEM-CCRF	cell growth, trypan blue exclusion	6 d	> 100
C#Cc1cccc(Nc2ncnc3cc(OCCOC)c(OCCOC)cc23)c1	BJ-1	cytotoxicity, LDH release	48 h	84 ± 1.97
CC1=NN(CNc2ccccn2)C(=O)C1=NNn1c(-c2ccccc2)nc2ccccc2c1=O	NIH 3T3	cytotoxicity, MTT	–	87
CN1CCN2CCN(CC1)CCN(Cc1ccccc1)CC2	THP-1	cell growth or viability	–	> 20
CC1=NN(CNc2ccc(O)cc2)C(=O)C1=NNn1c(-c2ccccc2)nc2ccccc2c1=O	NIH 3T3	cytotoxicity, MTT	–	62.1
N=C(N)c1cccc(OCCCCCCCOc2cccc(C(=N)N)c2)c1	HeLa DM1 model	cytotoxicity, propidium iodide flow cytometry	18 h, 50% cell death	30 ± 4.9
O=C1NN=C(N=Cc2ccccc2O)C1=NNn1c(-c2ccccc2)nc2ccccc2c1=O	NIH 3T3	cytotoxicity, MTT	–	226
O=c1ccn([C@H]2C=C[C@@H](CO)O2)c(=O)[nH]1	CEM-CCRF	cell growth, trypan blue exclusion	6 d	55.9
C=C(C[C@@H]1CCOc2ccccc21)c1cccc(C)c1	RAW264.7	cytotoxicity, CCK-8	24 h	128
CCCCCOC(=O)Nc1nc(=O)n([C@@H]2O[C@H](C)[C@@H](O)[C@H]2O)cc1F	NHDF	MTT	72 h, 10% FBS	> 200
C=C(C[C@@H]1CCSc2ccc(Cl)cc21)c1ccccc1	RAW264.7	cytotoxicity, CCK-8	24 h	144
CC1=NN(CNC(=O)c2ccccc2)C(=O)C1=NNn1c(-c2ccccc2)nc2ccccc2c1=O	NIH 3T3	cytotoxicity, MTT	–	171
C=C(C[C@@H]1CCOc2ccccc21)c1ccc(Cl)cc1	RAW264.7	cytotoxicity, CCK-8	24 h	94.9
Cc1c(O)cc(C[C@]23C[C@H](C[C@H](C)O2)c2c4c(c(O)c(C)c2O3)CO[C@]2(CCC[C@H](C)O2)C4)c(C=O)c1O	A549	cell growth or viability	–	6.8

A few entries again:
SMILES	cell line	assay	setting	IC50 [µM]
O=c1[nH]c(=O)n([C@H]2C[C@H](OP(=O)(O)OC[C@H]3O[C@H](O)[C@H](O)[C@@H](O)[C@@H]3O)[C@@H](CO)O2)cc1I	CEM-CCRF	cell growth, trypan blue exclusion	6 d	76
CC1=NN(CNc2ccccn2)C(=O)C1=NNn1c(-c2ccccc2)nc2ccccc2c1=O	NIH 3T3	cytotoxicity, MTT	–	87
